Results gathered from unrelated publications.
Numbered parts are unrelated; each lists some results of a single study. Several values in a cell are separate wells, animals, samples, runs or records.
UniProt Q15303, sequence (whole entry, looked up): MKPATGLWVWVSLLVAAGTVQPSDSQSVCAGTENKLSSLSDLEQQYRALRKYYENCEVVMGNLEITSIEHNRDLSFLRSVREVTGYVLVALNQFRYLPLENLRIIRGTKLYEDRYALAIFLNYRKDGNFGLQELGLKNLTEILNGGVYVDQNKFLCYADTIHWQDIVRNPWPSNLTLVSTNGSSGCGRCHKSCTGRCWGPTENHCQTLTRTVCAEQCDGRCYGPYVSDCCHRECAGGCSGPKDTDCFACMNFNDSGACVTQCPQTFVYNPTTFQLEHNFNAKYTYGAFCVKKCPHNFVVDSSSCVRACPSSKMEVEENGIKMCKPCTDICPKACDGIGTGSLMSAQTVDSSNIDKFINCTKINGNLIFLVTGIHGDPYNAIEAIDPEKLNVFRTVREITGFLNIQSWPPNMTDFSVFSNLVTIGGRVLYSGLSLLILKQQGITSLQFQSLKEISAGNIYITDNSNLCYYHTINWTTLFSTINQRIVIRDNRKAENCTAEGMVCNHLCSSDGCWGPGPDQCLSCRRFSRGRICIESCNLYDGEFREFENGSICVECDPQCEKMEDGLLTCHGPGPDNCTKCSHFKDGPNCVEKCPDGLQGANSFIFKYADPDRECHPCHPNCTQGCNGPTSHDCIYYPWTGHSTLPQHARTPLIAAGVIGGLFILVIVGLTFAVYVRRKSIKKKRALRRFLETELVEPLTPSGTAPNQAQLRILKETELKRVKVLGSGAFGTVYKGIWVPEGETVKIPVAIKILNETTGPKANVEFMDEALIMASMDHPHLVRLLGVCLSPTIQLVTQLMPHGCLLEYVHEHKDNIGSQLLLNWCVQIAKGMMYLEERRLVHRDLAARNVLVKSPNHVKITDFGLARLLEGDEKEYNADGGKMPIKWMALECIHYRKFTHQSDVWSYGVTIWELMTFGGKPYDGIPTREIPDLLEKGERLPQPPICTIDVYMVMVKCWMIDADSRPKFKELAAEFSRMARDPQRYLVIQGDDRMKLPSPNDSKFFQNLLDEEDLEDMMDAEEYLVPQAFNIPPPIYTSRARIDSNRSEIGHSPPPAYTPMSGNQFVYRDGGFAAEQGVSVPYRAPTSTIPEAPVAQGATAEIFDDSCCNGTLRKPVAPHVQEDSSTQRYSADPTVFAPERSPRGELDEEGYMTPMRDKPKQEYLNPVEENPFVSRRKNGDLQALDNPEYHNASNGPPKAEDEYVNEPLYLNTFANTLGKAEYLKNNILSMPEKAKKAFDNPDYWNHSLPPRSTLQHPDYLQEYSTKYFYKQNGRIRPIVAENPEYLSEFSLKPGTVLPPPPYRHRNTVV
UniProt Q9UQ88, sequence (whole entry, looked up): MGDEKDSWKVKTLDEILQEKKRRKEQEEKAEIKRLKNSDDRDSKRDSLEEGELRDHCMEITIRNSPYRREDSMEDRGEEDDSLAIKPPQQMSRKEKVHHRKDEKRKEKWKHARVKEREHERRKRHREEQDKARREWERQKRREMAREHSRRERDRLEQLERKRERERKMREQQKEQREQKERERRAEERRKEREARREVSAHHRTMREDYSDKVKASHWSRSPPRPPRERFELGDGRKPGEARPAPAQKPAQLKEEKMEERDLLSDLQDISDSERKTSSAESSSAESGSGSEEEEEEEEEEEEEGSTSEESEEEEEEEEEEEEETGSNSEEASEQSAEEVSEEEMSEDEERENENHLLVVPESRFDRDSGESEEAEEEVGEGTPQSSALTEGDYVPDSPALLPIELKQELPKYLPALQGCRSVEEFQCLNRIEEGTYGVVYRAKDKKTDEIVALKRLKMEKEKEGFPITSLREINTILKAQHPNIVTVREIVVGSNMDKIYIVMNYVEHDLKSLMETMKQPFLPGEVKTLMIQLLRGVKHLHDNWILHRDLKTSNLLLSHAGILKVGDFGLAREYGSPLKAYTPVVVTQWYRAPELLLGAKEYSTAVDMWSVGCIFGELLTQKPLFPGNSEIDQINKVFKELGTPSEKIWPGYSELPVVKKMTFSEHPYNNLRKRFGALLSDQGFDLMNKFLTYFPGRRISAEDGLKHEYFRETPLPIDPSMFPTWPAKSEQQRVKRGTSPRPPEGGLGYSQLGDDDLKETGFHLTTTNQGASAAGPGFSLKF
UniProt P49760, sequence (whole entry, looked up): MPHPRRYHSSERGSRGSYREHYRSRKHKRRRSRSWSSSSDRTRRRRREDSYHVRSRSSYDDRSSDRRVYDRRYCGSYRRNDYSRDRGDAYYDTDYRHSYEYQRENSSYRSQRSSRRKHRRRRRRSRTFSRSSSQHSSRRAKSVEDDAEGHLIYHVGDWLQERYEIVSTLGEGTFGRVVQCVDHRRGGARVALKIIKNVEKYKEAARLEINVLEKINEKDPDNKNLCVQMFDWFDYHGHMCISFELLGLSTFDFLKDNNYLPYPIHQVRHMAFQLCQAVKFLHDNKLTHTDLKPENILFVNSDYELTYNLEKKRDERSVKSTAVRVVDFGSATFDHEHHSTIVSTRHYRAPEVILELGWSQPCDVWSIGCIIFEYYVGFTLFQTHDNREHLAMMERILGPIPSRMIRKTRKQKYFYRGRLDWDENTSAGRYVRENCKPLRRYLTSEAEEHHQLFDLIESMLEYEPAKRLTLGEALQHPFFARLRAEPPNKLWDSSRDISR
UniProt P16591, sequence (whole entry, looked up): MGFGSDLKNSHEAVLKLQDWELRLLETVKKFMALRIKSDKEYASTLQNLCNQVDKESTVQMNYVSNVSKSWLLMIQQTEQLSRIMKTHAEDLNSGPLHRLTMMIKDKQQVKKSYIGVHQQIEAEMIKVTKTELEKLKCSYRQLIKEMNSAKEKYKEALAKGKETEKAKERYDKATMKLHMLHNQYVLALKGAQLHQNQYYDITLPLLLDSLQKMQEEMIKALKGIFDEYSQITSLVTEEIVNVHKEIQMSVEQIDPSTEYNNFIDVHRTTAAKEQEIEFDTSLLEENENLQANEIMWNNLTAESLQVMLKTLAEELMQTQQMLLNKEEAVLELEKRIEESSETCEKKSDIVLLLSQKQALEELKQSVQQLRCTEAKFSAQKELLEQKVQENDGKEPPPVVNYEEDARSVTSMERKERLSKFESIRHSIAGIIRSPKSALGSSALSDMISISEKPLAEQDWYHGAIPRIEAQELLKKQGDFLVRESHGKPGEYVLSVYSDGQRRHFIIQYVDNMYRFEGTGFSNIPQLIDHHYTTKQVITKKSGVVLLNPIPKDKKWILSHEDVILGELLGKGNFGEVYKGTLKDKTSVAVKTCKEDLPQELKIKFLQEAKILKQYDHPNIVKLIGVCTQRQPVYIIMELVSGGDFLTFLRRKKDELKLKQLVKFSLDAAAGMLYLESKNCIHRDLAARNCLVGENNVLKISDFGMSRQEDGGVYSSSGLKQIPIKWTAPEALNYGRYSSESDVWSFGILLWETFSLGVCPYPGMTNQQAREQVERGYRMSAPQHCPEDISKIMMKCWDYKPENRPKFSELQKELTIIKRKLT

Set 1
Target: Serine/threonine-protein kinase PAK 1 (PAK1, Homo sapiens, UniProt Q13153)
UniProt Q13153, sequence (whole entry, looked up): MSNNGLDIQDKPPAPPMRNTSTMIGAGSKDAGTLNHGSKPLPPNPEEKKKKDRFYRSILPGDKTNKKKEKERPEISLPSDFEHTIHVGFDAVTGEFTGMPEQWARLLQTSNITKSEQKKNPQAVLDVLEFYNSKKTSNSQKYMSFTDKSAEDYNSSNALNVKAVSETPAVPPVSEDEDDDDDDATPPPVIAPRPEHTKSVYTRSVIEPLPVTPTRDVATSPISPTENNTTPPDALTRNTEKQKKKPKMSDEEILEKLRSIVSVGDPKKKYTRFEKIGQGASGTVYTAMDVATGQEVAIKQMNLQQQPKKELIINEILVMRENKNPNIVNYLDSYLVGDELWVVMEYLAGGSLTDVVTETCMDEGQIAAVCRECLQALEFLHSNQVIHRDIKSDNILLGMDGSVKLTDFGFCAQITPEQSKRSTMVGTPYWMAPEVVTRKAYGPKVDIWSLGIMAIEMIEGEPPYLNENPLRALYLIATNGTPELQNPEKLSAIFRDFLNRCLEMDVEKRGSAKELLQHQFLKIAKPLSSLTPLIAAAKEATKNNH
Read-out: enzyme activity
Mode: inhibitor
Tested at: 0.5 µM
Relative to: control
Compound | remaining activity [%]
Nc1ccc2ncnc(NCCc3ccc(Oc4ccccc4)cc3)c2c1 | 94.9
Cc1ccc(NC(=O)c2ccc(CN3CCN(C)CC3)cc2)cc1Nc1nc(-c2cccnc2)cs1 | 104
Cn1c2ccccc2c2c3c(c4c5ccccc5n(CCC#N)c4c21)CNC3=O | 83.3
O=c1c2ccccc2[nH]c(=S)n1CCN1CCC(=C(c2ccc(F)cc2)c2ccc(F)cc2)CC1 | 94.6
COc1cc2nccc(Oc3ccc(NC(=S)NC(=O)c4ccccc4C)cc3)c2cc1OC | 101
COc1ccc(CNC(=O)Nc2ncc([N+](=O)[O-])s2)cc1 | 94.2
Nc1ncnc2n[nH]c(Nc3ccc(F)cc3)c12 | 95.2
O=C1NC(=O)C(c2cn(CCCn3ccnc3)c3ccccc23)=C1Nc1ccccc1 | 92.9
CCOC(=O)c1c(C)[nH]c(/C=C2\C(=O)Nc3ccccc32)c1C | 99.9
Cc1cccc(-c2[nH]c(C(C)(C)C)nc2-c2ccc3c(c2)OCO3)n1 | 96.3
OCC(O)CCON=C1C(c2c(O)[nH]c3ccccc23)=Nc2ccccc21 (stereo not drawn) | 71.3
NCCNc1ncc(C(N)=O)c(Nc2cccc(C(F)(F)F)c2)n1 | 86.8
Cn1sc(=O)n(Cc2ccccc2)c1=O | 94.1
Cc1nc(-c2ccccc2)c(-c2ccncc2)o1 | 98.7
O=C(CCCc1ccc(-c2ccccc2F)cc1)Nc1ccc(O)cc1 | 95.4

Set 2
SMILES: O=C(Nc1cnc(Oc2ccc(F)cc2)nc1)N1CCc2ncccc2[C@@H]1c1ccc(F)cc1
Technique: competition with immobilised ligand
Tested at: 1 µM
target | assay | remaining binding [%]
CLK2 (Homo sapiens, UniProt P49760) | cell-free assay | 100
FER (Homo sapiens, UniProt P16591) | cell-free assay | 93
CDK11A (Homo sapiens, UniProt Q9UQ88) | binding | 91
ERBB4 (Homo sapiens, UniProt Q15303) | cell-free assay | 97
STK39 (Homo sapiens, UniProt Q9UEW8) | cell-free assay | 77

Set 3
Target: Beta-1 adrenergic receptor (ADRB1, Homo sapiens, UniProt P08588)
UniProt P08588, sequence (whole entry, looked up): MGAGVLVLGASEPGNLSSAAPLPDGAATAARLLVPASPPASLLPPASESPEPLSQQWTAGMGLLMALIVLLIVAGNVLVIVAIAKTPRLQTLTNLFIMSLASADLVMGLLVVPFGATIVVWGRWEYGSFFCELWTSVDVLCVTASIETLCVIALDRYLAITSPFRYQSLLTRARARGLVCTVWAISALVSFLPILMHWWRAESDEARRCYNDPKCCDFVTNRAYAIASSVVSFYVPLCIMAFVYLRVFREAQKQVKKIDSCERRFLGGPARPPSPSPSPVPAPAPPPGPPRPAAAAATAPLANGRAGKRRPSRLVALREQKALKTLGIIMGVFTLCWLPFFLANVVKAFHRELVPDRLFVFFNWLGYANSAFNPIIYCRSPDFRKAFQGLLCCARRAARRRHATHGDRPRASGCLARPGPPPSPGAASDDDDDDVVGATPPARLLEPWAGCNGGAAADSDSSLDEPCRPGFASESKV
Mode: antagonist
Compound | IC50
Cc1cc2nc3ccc(N(C)C)cc3[s+]c2cc1N | 35.5 µM
CN(C)c1ccc(CN2CCNc3cc(Nc4cccnc4)ncc3C2)cc1 | ≥ 100 µM
Cc1ccc2c(C(=O)N(C)C(C)C)cc(-c3cnc(C(C)C)nc3)nc2c1 | ≥ 100 µM
COc1cc2c3c(c1)C1(C(=O)N3C(C)(C)C=C2C)C(C#N)=C(N)Oc2cc(O)ccc21 (stereo not drawn) | ≥ 100 µM
CN(C)c1ccc(CNC2(Cc3cc(-c4ccc(F)cc4)on3)COC2)cc1 | ≥ 100 µM
O=C(COc1ccccc1)Nc1ccc([C@@H](O)[C@H]2COCC(=O)N2Cc2ccc(F)cc2)cc1 | ≥ 100 µM
CC(O)CN1CCN(c2cnc3ccccc3n2)C(C)C1 (stereo not drawn) | ≥ 100 µM

Set 4
SMILES: Cc1cc2c(C(N)=O)c(N)n(-c3c(C)ccc(O)c3C)c2nc1C
target or system | assay | setting | inhibition
LN-229 | cell proliferation | 13.72 nM | -5.97% and -6.09% and -9.41%
HCC1569 | automated capillary immunoblot, measured: CDK1 phospho-Thr14 | 4.12 nM | 32.6%
MKN-1 | cell proliferation | 4.572 nM | 2.17% and 2.9% and 5.61%
SRC (Homo sapiens, UniProt P12931) | kinase activity, inhibitor, HTRF | 0.004572 µM | 40.9%
NCI-H1648 | cell proliferation | 13.72 nM | -26.9% and -21.8% and -24.6%

Other studies, line by line
SMILES | system | setting | endpoint | value
CC(C)n1cnc(-c2ccc(F)cc2)c1-c1ncc(C(=O)Nc2ccc(N3CCN(C)CC3)cc2)[nH]1 | human, idiopathic pulmonary fibrosis | 30 mg once daily, trial, treatment-emergent | patients with IPF worsening | 0%

Excerpt of the above (set 3):
Compound | IC50
Cc1cc2nc3ccc(N(C)C)cc3[s+]c2cc1N | 35.5 µM
CN(C)c1ccc(CN2CCNc3cc(Nc4cccnc4)ncc3C2)cc1 | ≥ 100 µM
Cc1ccc2c(C(=O)N(C)C(C)C)cc(-c3cnc(C(C)C)nc3)nc2c1 | ≥ 100 µM
COc1cc2c3c(c1)C1(C(=O)N3C(C)(C)C=C2C)C(C#N)=C(N)Oc2cc(O)ccc21 (stereo not drawn) | ≥ 100 µM
